Published values collected from several papers.
Lines come from different studies, so protocols differ.
MAPK8: Mitogen-activated protein kinase 8 (MAPK8, Homo sapiens, UniProt P45983)
Chain of UniProt P45983 (whole entry, looked up): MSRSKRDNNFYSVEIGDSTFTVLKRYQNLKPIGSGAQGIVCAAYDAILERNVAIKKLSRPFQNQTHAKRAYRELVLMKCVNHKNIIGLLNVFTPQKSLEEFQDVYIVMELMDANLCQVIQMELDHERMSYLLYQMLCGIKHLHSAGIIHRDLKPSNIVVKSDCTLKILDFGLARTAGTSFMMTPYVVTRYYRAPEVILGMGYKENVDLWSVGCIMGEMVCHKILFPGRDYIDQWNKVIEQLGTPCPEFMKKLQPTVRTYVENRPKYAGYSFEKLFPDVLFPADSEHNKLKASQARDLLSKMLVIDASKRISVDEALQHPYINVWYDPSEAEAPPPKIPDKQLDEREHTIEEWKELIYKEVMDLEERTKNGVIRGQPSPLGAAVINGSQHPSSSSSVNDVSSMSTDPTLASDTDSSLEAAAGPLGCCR

target = MAPK8; assay = kinase activity, KinaseProfiler; conditions = 0.03 µM, species human; scale = reference: control; remaining activity = 106%; SMILES = COc1ccc(NC(=O)Nc2ccc3c(c2)C(=O)N(C(C)CO)CC(C)C(CN(C)Cc2ccc4c(c2)OCO4)O3)cc1 (stereo not shown)
target = MAPK8; assay = enzyme activity, Dundee kinase panel; conditions = 10 µM; remaining activity = 101%; SMILES = Cc1cccc(-c2ccc3nc(NC(=O)C4CCCCC4)nn3c2)c1
target = MAPK8; assay = enzyme activity, inhibitor; conditions = 0.25 µM; remaining activity = 95%; SMILES = c1ccc2c(Nc3cc(C4CCC4)[nH]n3)nc(Nc3ccc4nc[nH]c4c3)nc2c1
target = MAPK8; assay = kinase activity, inhibitor, ProQinase kinase profiling; conditions = 25 µM; scale = reference: control; remaining activity = 104%; SMILES = COCC12C(=O)NC3C4(C(OC)CC1O)C1CC5(O)C(OC)C(O)C(OC(C)=O)(C1C5OC(=O)c1ccccc1)C3(O)C(OC)C24 (stereo not shown)
target = MAPK8; assay = kinase activity, inhibitor; conditions = 1 µM; scale = reference: untreated control; remaining activity = 104%; SMILES = COc1c(OCCCN2CCOCC2)ccc2c1N=C(NC(=O)c1cnc(N)nc1)N1CCN=C21
target = MAPK8; assay = enzyme activity, inhibitor; conditions = 44.44 µM, 0 h, unit not given, added: GSH 10 mM pre-incubation; scale = reference: vehicle; remaining activity = 0.00878; SMILES = COC(=O)[C@@]1(C)C=C(C(=O)Nc2cccc(C(=O)Nc3ccc(Nc4nccc(-c5cccnc5)n4)c(C)c3)c2)C(=O)CC1
target = MAPK8; assay = enzyme activity, Dundee kinase panel; conditions = 10 µM; remaining activity = 101%; SMILES = Cc1ccc(C)c(-c2ccc3nc(NC(=O)C4CCCCC4)nn3c2)c1
target = Mitogen-activated protein kinase 8, phosphorylated (MAPK8, Homo sapiens, UniProt P45983); assay = enzyme activity after dialysis, inhibitor; conditions = 10 µM, 3 days, unit not given; scale = reference: no inhibitor; remaining activity = 0.443; SMILES = Cc1cc(NC(=O)c2cccc(NC(=O)/C(C#N)=C/C(C)(C)C)c2)ccc1Nc1nccc(-c2cccnc2)n1
target = MAPK8; assay = enzyme activity; conditions = 100 nM, human enzyme, added: 10 µM ATP; scale = reference: untreated; remaining activity = 106%; SMILES = O=C=[N][Ru-4]123([n]4c5ccc(O)cc5c5c6c(c7cc(F)c[n+]1c7c54)C(=O)NC6=O)[S+]1CC[S+]2CC[S+]3CC1 (stereo not shown)
target = MAPK8; assay = enzyme activity, inhibitor; conditions = 10 µM; remaining activity = 36%; SMILES = Nc1nc(Nc2ccccc2)sc1C(=O)c1ccccc1
